Measurements of several laboratories.
Compare with care: the assays were run in different laboratories. Numbers after ± are the reported error.
Cell line: A-375

| Compound | effect on | mode | technique | tested at | time | endpoint | result |
| --- | --- | --- | --- | --- | --- | --- | --- |
| C=C(F)C(=O)N1CCN(c2nc(OC[C@@H]3CCCN3C)nc3c2CCN(c2cccc4cccc(Cl)c24)C3)C[C@@H]1CC#N | cell viability | – | 3D CellTiter-Glo | – | – | IC50 | > 1 µM |
| CCn1cc(-c2cc(Cn3ccnc3)cc3c2CCN([C@H](c2cc(OC)ccn2)C2CC2)C3=O)c(C(F)(F)F)n1 | cell growth | inhibitor | – | – | 120 h | EC50 | > 30 µM |
| CCN(CC)CCNC(=O)c1c(C)[nH]c(/C=C2\C(=O)Nc3ccc(F)cc32)c1C | cell viability | – | MTT | – | 72 h | EC50 | 2.9 ± 0.99 µM |
| O=C(NOC[C@H](O)CO)c1ccc(F)c(F)c1Nc1ccc(I)cc1F | – | – | – | 5 µM | 72 h | viability | 12.8% |
| O=C(NN=Cc1ccc(Cl)cc1)C1CC(=O)N(c2ccc(F)cc2F)C1 (stereo not shown) | cell viability | – | MTT | – | 72 h | EC50 | 36.6 ± 11 µM |
| COc1cc2ncnc(Nc3ccc(Oc4ccccc4)cc3C)c2cc1OC | – | – | – | 3 µM | 72 h | viability | 75.3% |
| O=C(/C=C/C=C/C=C/C1CCCCC1)NC1=C[C@@](O)(/C=C/C=C/C=C/C(=O)NC2=C(O)CCC2=O)[C@@H]2O[C@@H]2C1=O | cell growth | – | CellTiter-Glo | – | 78 h | GI50 | 20 µM |
| CCN(N=Cc1ccc(Br)cc1)C(=O)C1CC(=O)N(c2ccc(F)cc2F)C1 (stereo not shown) | cell viability | – | MTT | – | 72 h | EC50 | 36.6 ± 4 µM |
| Cn1cnc2c(F)c(Nc3ccc(Br)cc3F)c(C(=O)NOCCO)cc21 | – | – | – | 0.07813 µM | 72 h | viability | 87.2% |
| Cc1cnc(NC2CCOCC2)nc1-n1cnc(C(=O)NC(CN)c2cc(F)cc(Cl)c2)c1 (stereo not shown) | – | – | flow cytometry | 1 µM | 24 h | S phase cells | 5.5% |

Repeated from above:
| Compound | effect on | mode | technique | tested at | time | endpoint | result |
| --- | --- | --- | --- | --- | --- | --- | --- |
| O=C(NN=Cc1ccc(Cl)cc1)C1CC(=O)N(c2ccc(F)cc2F)C1 (stereo not shown) | cell viability | – | MTT | – | 72 h | EC50 | 36.6 ± 11 µM |
